Measured values of several laboratories.
Protocols differ between the studies behind these lines. ± marks the error that the study gave.

Structure (SMILES)	cell line	test	setting	GI50 [µM]
COc1ncccc1CN(C(=O)OC(c1ccc([N+](=O)[O-])cc1)C(F)(F)F)[C@H]1C[C@@H]1c1ccccc1 (mixture of isomers)	THP-1 cells expressing NTR	MTS	72 h	> 50
O=C(C[Se]C(=O)c1cc2ccccc2o1)Nc1cccc(C(F)(F)F)c1	NCI60 colon subpanel	NCI60 five-dose screen		2.62
CCN(C(=O)c1cc(F)ccc1Oc1nncnc1N1CCC2(C1)CN([C@H](CCCN(C)CCOC)C(C)C)C2)C(C)C	Calu-6	cell growth or viability	7 days	> 10
COc1ncccc1CN(C(=O)OCc1ccc([N+](=O)[O-])cc1)[C@H]1C[C@@H]1c1ccccc1 (racemic)	THP-1 cells expressing NTR	MTS	72 h	> 50
C=CC(=O)N1CCC[C@@H](n2nc(-c3ccc(Oc4ccccc4)cc3)c3c(N)ncnc32)C1	TMD8	cell growth or viability, WST-1	72 h	0.0029
O=C(C[Se]C(=O)c1cc2ccccc2s1)Nc1cccc(C(F)(F)F)c1	NCI60 colon subpanel	NCI60 five-dose screen		2.37
COC1CN([C@H]2CC[C@H]([C@@]3(C)Oc4c(Cl)cc(C(=O)NCc5c(SC)cc(C)[nH]c5=O)c(C)c4O3)CC2)C1	T24	cell growth or viability, ATP luminescence	6 days	> 10
COc1ncccc1CN(C(=O)OCc1ccc([N+](=O)[O-])cc1F)[C@H]1[C@@H](C)[C@@H]1c1ccccc1 (racemic)	THP-1 cells expressing NTR	MTS	72 h	4.2 ± 0.5
O=C(C[Se]C(=O)C12CC3CC(CC(C3)C1)C2)Nc1cccc(C(F)(F)F)c1	NCI60 colon subpanel	NCI60 five-dose screen		13.5

For quick reference, copied from above:
Structure (SMILES)	cell line	test	setting	GI50 [µM]
COC1CN([C@H]2CC[C@H]([C@@]3(C)Oc4c(Cl)cc(C(=O)NCc5c(SC)cc(C)[nH]c5=O)c(C)c4O3)CC2)C1	T24	cell growth or viability, ATP luminescence	6 days	> 10
